Published values from different studies.
± gives the spread as reported. ≈ marks a conversion by molar mass, not a printed value.

The inhibition of `[Ca+2]` is reported as 18.5% (Halyomorpha halys; outward current, inhibitor, electrophysiology; concentration not given, D721A D731A in Nan).
`NC(=O)c1ncn([C@@H]2O[C@H](CO)[C@@H](O)[C@H]2O)n1` gave an IC50 of 3.18 µg/mL (Influenza A virus H1N1 A/Tianjin Jinnan/15/2009; viral replication; MDCK).
For `O=C1c2c(O)c(=O)ccn2N([C@@H]2c3ccccc3SCc3c2ccc(F)c3F)[C@@H]2COCCN12`, the EC50 was 0.66 ± 0.1 nM (Influenza A virus; viral replication; A(H1N1)pdm09 rg-A/California/04/2009; mean).
`CCC(CC)[C@H](NC(C)=O)[C@@H]1[C@H](O)[C@@H](C(=O)O)C[C@H]1N=C(N)N` has an IC50 of 1 ± 0.3 nM (neuraminidase (Influenza B virus, UniProt C0LT34)).
`NCCCNCCCCN(CCCN)/[N+]([O-])=N/O` — result for dimerization affinity: “no effect” (Sensor histidine kinase PdtaS (pdtaS, Mycobacterium tuberculosis, UniProt P9WGL4, C57A)).
The EC50 of `CCOC(=O)C1=C[C@@H](OC(CC)CC)[C@H](NC(C)=O)[C@@H](N)C1` is reported as over 100000 nM (Influenza A virus; viral replication; A/TianJin-JinNan/15/2009 (H1N1)).
For `Nc1cccc(F)c1C(=O)O`, “MIC fold change” read 15 fold (Mycobacterium bovis BCG; compound-resistant mutants; concentration not given; relative to: wild type).
`CCCC1(N)C2CC3CC(C2)CC1C3` (stereo not shown): “inward proton current” “inhibited” (Matrix protein 2 (Influenza A virus, UniProt C3W5Z0, N31S); blocker; concentration not given).
`CCc1oc2ccccc2c1/C=C/C(=O)N(CCOC)Cc1nc2ccccc2c(=O)[nH]1` — result for “binding efficiency index”: 11 (inhA (Mycobacterium tuberculosis, UniProt P9WGR1); enzyme activity).
For `CCOC(=O)C1=C[C@@H](OC(CC)CC)[C@H](NC(C)=O)[C@@H](N)C1`, the IC50 was 50.7 µg/mL (Influenza A virus H1N1 A/Tianjin Jinnan/15/2009; viral replication; MDCK, resistant to compound).
`NNC(=O)c1ccncc1` — result for “MIC fold change”: 1 fold (Mycobacterium tuberculosis; H37Rv inhA M103T mutant; concentration not given; relative to: wild type H37Rv).
For `CS(=O)(=O)Nc1ncn(-c2cc(F)c(COc3ccc(OS(=O)(=O)F)cc3)c(F)c2)n1`, the MIC90 was 0.29 µM (≈ 0.139 µg/mL) (Mycobacterium tuberculosis; Pks13 wild-type overexpression).
With `CC(=O)N[C@H]1[C@H]([C@H](O)[C@H](O)CO)OC(C(=O)O)=C[C@@H]1O` the EC50 was 8000 nM (Influenza A virus; viral replication; A/Paris/1170/2007 (H1N1); 72 h).

A few entries again:
`CCCC1(N)C2CC3CC(C2)CC1C3` (stereo not shown): “inward proton current” “inhibited” (Matrix protein 2 (Influenza A virus, UniProt C3W5Z0, N31S); blocker; concentration not given).
